Assay results from different studies.
Protocols differ between the studies behind these lines. ± gives the spread as reported.

CC[C@H](C)[C@H](NC(=O)[C@H](C)NC(=O)CNC(=O)[C@H](Cc1c[nH]cn1)NC(=O)[C@@H](NC(=O)[C@H](Cc1ccccc1)NC(=O)[C@H](CCCCN)NC(=O)CNC(=O)[C@H](C)NC(=O)[C@H](CCCCN)NC(=O)[C@H](Cc1ccccc1)NC(=O)[C@@H](NC(=O)[C@H](Cc1c[nH]cn1)NC(=O)[C@H](CCCCN)NC(=O)[C@H](Cc1ccccc1)NC(=O)[C@@H](NC(=O)[C@H](CO)NC(=O)CNC(=O)[C@H](Cc1c[nH]c2ccccc12)NC(=O)CNC(=O)[C@H](C)N)[C@@H](C)CC)[C@@H](C)CC)[C@@H](C)CC)C(=O)N[C@@H](CCC(N)=O)C(=O)N[C@@H](C)C(=O)N[C@@H](Cc1c[nH]cn1)C(=O)N[C@@H](CC(N)=O)C(=O)N[C@@H](CC(=O)O)C(N)=O
acute toxic concentration (zebrafish embryos; 1 h, 4, 28, 52 hpf): 5 to 25 µg/mL

CC[C@H](C)C(=O)N1CCC(NC(=O)Nc2ccc(OC(F)(F)F)c(F)c2)CC1
subjects with urinary tract infection (healthy volunteers, both sexes; oral, 8 mg, fasted state): 7.7%

Cc1ccccc1CN1CCC(O)(c2ccc(Cl)c(C(F)(F)F)c2)CC1
survival (BALB/c mouse; intraperitoneal, 50 mg/kg, 96 h): 100%

CC(C)C[C@@H](NC(=O)[C@@H](CCCCN)NC(=O)CNC(=O)CNC(=O)[C@@H]1CSSC[C@H](N)C(=O)NCC(=O)N[C@@H](CCCNC(=N)N)C(=O)N[C@@H](CCCNC(=N)N)C(=O)N[C@@H](C)C(=O)NCC(=O)NCC(=O)N[C@@H](CO)C(=O)N1)C(=O)N[C@H](C)C(=O)N[C@H](CCCCN)C(=O)N[C@H](CC(C)C)C(=O)N[C@H](C)C(=O)N[C@H](CCCCN)C(=O)N[C@H](CCCCN)C(=O)N[C@H](CC(C)C)C(=O)N[C@H](C)C(=O)N[C@H](CCCCN)C(=O)N[C@H](CC(C)C)C(=O)N[C@H](C)C(=O)N[C@H](CCCCN)C(=O)O
plasma level (cynomolgus monkey, plasma; intravenous infusion, 1 mg/kg, 2 h): not detected

COC[C@@H](NC(C)=O)C(=O)NCc1ccc(OCc2ccc(Cl)cc2)cc1
TD50 (behavioural toxicity; rat; oral): > 500 mg/kg

C[C@H]1N=C(c2ccccc2F)c2cc(Br)ccc2-n2cnc(C(=O)OC3O[C@H](C(=O)O)[C@@H](O)[C@H](O)[C@H]3O)c21 (stereo partly shown)
excretion in urine and feces (Swiss Webster mouse; intravenous, 250 µg of parent drug, 0 to 48 h; relative to: dose): 2.6 ± 0.54%

Nc1ccn(CC2COP(=O)(OCCCCCCNC(=O)CCCCC3SCC4NC(=O)NC43)CO2)c(=O)n1 (mixture of isomers)
partition coefficient (rabbit, retina-choroid; relative to: parent CDF): 4.9 fold

CC(C)(CCCC/C=C/CCCCCC(C)(C)C(=O)O)C(=O)O
half-life (beagle dog, plasma; oral, 5 mg/kg): 1640 min

CC(C)C[C@@H](N)C(=O)NCC(=O)N[C@H](C)C(=O)N[C@H](CO)C(=O)N[C@H](Cc1c[nH]c2ccccc12)C(=O)N[C@H](Cc1c[nH]cn1)C(=O)N[C@H](CCCNC(=N)N)C(=O)N1CCC[C@@H]1C(=O)N[C@H](CC(=O)O)C(=O)N[C@H](CCCCN)C(=O)N[C@H](CS)C(=O)N[C@H](CS)C(=O)N[C@H](CC(C)C)C(=O)NCC(=O)N[C@H](Cc1ccc(O)cc1)C(=O)N[C@H](CCC(N)=O)C(=O)N[C@H](CCCCN)C(=O)N[C@H](CCCNC(=N)N)C(=O)N1CCC[C@@H]1C(=O)N[C@H](CC(C)C)C(=O)N1CCC[C@@H]1C(N)=O
accuracy (LC-MS/MS; rat plasma; 5000 ng/mL, 12 h, 25 °C, room temperature before extraction; relative to: nominal): 114%

CC(C)[C@H](NC(=O)CNC(=O)[C@H](CCC(N)=O)NC(=O)[C@H](C)N)C(=O)O
subjects with adverse events (serious adverse event; human; 20 mg/kg, 3 days, thrice daily dosing): 0%

A few entries again:
CC(C)(CCCC/C=C/CCCCCC(C)(C)C(=O)O)C(=O)O
half-life (beagle dog, plasma; oral, 5 mg/kg): 1640 min
